Published values gathered from unrelated publications.
A part holds a random share of what one study measured.

Block 1 — technique: RNA Bind-n-Seq; form: RNA; matrix: in vitro; concentration: 365 nM; baseline: no-protein control; direction: higher = stronger binding; endpoint: RBNS enrichment (R)
Target: RNA binding protein fox-1 homolog 2, RRM domain, GST-SBP tag (RBFOX2, Homo sapiens, UniProt O43251-10, residues 100-194)
Setting: natural RNA segment, single round, ends assumed
Target sequence (chain): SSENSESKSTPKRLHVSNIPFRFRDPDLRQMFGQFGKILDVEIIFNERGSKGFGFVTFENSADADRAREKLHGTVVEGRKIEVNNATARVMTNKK
Sequence = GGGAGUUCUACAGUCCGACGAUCGGCUCACCUUGAUGGAGGGACUGGGGUGGGUGGGACUACCGCCCCGCCCACCUGUCUGCACUCCUGUCACUUGUAGGCCUGGCUGACUUACAGAUUUUUCCUUCCCCAGCUGGAAUUCUCGGGUGCCAA; result = 0.239
Sequence = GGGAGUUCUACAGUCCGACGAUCGCUGUUUGAACAGCAGCGUUUCAUAGGAAGAGAAAAAGAUCAAUCUUGUAUUUUCUGACCACAUAAAGGCUUCUUCUCUUUGUAAUAAAGUAGAAAAGCUCUCCUCACUGUGGAAUUCUCGGGUGCCAA; result = 0.223
Sequence = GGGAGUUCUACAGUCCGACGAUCGUGGAAAGCAAGCCGAGGUGUAAACUGCUGUACAUAGCUUGAAGAAAUACAAAUGAAGUCACGUUUCCUGAGCAGUUUUUCUGAGUCUCAAACUAGGAACAAAUUCUGAGUGGAAUUCUCGGGUGCCAA; result = 0.399
Sequence = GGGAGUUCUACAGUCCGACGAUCUUUUUAUAAUAUUAUCUAUGGGAUGUCAGCACAAUAUAACACUCUGGGAAGAAGUGGAGUUUUUUGGUUAUUAGGUUAAUUUUCUAGUAAAACACGUUGCCUGUUUUCAGUGGAAUUCUCGGGUGCCAA; result = 0.813
Sequence = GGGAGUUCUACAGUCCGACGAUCAGCUAGCACUGUCUGGAAUGGCCUGUGUUGUAAGUGUCUUGGCCUCUAGGGAAGGUUUGUGCUGGCCUCAGGAGACUGUCUCAUGAGCAGGGAAGUGUUGUGGCCGGCUGUGGAAUUCUCGGGUGCCAA; result = 1.9
Sequence = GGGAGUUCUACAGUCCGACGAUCAAGGCUUAAGAGUGCCUGUUUCUGACAAUAAAAUGUUCCAAUAUUAAUGAACAGUGCCAAAUACACUGUGCAUAUCUAUAAUUUUCCAUUUGAAUGUAUGUUAAUUACUCUGGAAUUCUCGGGUGCCAA; result = 0.968
Sequence = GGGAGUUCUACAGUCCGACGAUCUUUGAUGACCCUCAUCCAAGUCUAUGACACUUUCCUAUGGUUUUCUGUAUUCUAUGUCUGGAUGGAGCUGUUAAAAGAUGAACAAAUUGGUGGAUAUUUGGGGAAAGCAAUGGAAUUCUCGGGUGCCAA; result = 0.846
Sequence = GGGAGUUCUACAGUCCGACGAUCUUUGUUCUAAAUAUCAACUAGCGCAAGUGAAUACUGAAGAUUUCUUAGUCAGUUUUUAGGGGAUUUUCGGGGAGGGGAAAUAGGUAAUGUAUGGAGCAUUUUCACUUCUAUGGAAUUCUCGGGUGCCAA; result = 2.92
Sequence = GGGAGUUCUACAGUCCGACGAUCCAAAGAACAUUCUCUUUCAUCUAUAAAGAAAUUCUUAAAGAUGCAUUGACAGUGUUGAAUUACCAACAGCCUGUGAAGAUCAGUUUGACCGGUGUGGACACGUGCUGGUUUGGAAUUCUCGGGUGCCAA; result = 0.299
Sequence = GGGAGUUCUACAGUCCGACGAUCAGGAAAAGAGAGAAAAAGGCAAAGCAAGGUUGUGGCCUUAGGUUGGACCUGGAAUAUCCCUUAUUGCCUAUAAUGGAAUAUGUGACACUGUGGGUGAAAUGUUCUACACAUGGAAUUCUCGGGUGCCAA; result = 1.16
Sequence = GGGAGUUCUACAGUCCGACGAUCAUCAGCACUGUGAAAAUGAACCUAUACAGUAAAUUGGUACCAGUAGAGUGGGGCGCUGCUGUAAAUACCCAAAAAUGUGGAAGCAACUUUGGAACUGGGUAACAGGCAGAUGGAAUUCUCGGGUGCCAA; result = 0.763
Sequence = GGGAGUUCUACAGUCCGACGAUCGAACAAACAACAACAAAAAAAGCCAAUGAAGCCAUGUGCUGUCCUUAGGCAGACGUACUUGUCUCCACUCCCCACUCCAUCUCAGCCCAACUCCAGACACCCUAGGGCUGUGGAAUUCUCGGGUGCCAA; result = 0.708

Block 2 — technique: RNA Bind-n-Seq; form: RNA; matrix: in vitro; concentration: 200 nM; setting: whole 134-nt RNA, ends assumed; added: 150 mM LiCl; baseline: input library; direction: higher = stronger binding; endpoint: log2 enrichment; each molecule: 7-deaza-guanosine replaces G
Target: Ras GTPase-activating protein-binding protein 1, full length (G3BP1, Homo sapiens, UniProt Q13283)
Chain of UniProt Q13283 (whole entry, looked up): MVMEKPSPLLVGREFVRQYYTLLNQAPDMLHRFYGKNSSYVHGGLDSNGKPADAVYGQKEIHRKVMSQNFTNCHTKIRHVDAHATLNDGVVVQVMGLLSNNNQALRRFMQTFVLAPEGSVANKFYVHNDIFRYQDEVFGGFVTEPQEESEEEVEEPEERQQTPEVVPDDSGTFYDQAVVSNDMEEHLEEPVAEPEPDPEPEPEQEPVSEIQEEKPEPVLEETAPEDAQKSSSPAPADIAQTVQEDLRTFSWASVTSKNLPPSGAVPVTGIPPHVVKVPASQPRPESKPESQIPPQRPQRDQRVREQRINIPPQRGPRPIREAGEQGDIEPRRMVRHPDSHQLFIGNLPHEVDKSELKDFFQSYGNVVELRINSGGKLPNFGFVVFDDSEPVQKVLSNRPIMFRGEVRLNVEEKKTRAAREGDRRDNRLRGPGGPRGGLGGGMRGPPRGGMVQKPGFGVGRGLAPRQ
Sequence = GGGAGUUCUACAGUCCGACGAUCACCAUGCAGGUGGAAAUCUUUGGGAAGUGGGGCAAGGGGGGGAUAGGGAGGGGGGUAACACUUUGGGAACAGGUGGUCCCAGGUCGUUUCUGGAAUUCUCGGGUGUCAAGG; result = 0.256
Sequence = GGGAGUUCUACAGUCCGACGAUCGUCCUGUGCUACACAUCGUAUGUACCGAAUCGGGGUUUUUGGGGUUUUUGGUUUUUGGAAAGUAUUAUGUUACGCCGUUCGGAUCUGCACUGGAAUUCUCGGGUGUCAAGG; result = -0.494
Sequence = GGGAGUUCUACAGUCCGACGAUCUGUGCUACACAUCGUAUGUACCGAAUCGGGGAAAAAAAGGGGAAAAAGGGGAAAAAAAGGGGAAAGUAUUAUGUUACGCCGUUCGGAUCUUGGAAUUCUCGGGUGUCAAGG; result = 0.716
Sequence = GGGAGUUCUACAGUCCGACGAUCGCAGGAAGUAAAAACAAAUGGAAAUGCUUCUGAUAGUGGCAGGGGUGGGGGUUGCUAAGGAAAGGGUGGGAUGGGAGUGGGUAAAGAGUUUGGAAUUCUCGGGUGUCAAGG; result = 0.324
Sequence = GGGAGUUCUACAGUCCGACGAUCUGGGAGGUGGAUUUUGUUUAUUUUUUUAGCUCAUUUCCAGGGGAGGGAAUUUUUUUUUAAUAUGUGUCAUGAAUAAAGUUGUUUUUGAAAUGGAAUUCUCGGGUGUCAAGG; result = -0.678
Sequence = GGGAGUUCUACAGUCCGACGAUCGUCCUGUGCUACACAUCGUAUGUACCGAAUCGGGAAAAAAAGGGUUUUUGGGUUUGGGAAAGUAUUAUGUUACGCCGUUCGGAUCUGCACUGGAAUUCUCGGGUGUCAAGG; result = -2.28
Sequence = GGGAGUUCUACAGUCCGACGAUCUGGGAGGUGGAUUUUGUUUAUUUUUUUAGCUCAUUUCCAGGGGUGGGAAUUUUUUUUUAAUAUGUGUCAUGAAUACAGUUGUUUUUGAAAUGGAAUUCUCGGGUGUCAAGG; result = -0.272
Sequence = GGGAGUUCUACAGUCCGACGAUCUCCUGUGCUACACAUCGUAUGUACCGAAUCGGUUUUUGGGGUUUUUGGGGUUUUUGGGGAAAGUAUUAUGUUACGCCGUUCGGAUCUGCAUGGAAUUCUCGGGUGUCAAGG; result = -0.047
Sequence = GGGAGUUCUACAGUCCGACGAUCCCUGUGCUACACAUCGUAUGUACCGAAUCGGGUUUUUUUGGGGUUUUUUUGGUUUUUUUGGAAAGUAUUAUGUUACGCCGUUCGGAUCUGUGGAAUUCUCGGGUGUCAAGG; result = 1.17
Sequence = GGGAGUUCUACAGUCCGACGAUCAGUCCUGUGCUACACAUCGUAUGUACCGAAUCGGAAAGGUUUUUUUGGAAAAAAAGGAAAGUAUUAUGUUACGCCGUUCGGAUCUGCACUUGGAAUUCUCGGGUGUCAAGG; result = -1.95
Sequence = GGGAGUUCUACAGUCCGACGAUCUCCUGUGCUACACAUCGUAUGUACCGAAUCGGUUUUUUGGGGUUUUUUGGGUUUUUUGGGAAAGUAUUAUGUUACGCCGUUCGGAUCUGCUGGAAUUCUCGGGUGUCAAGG; result = 0.503

Block 3 — technique: protein binding microarray; form: double-stranded DNA, one strand shown; matrix: in vitro; concentration: not given; baseline: not given; direction: higher = stronger binding; endpoint: E-score
Target: Histone acetyltransferase KAT6A, winged helix 2, GST fusion (KAT6A, Homo sapiens, UniProt Q92794, residues 85-181)
Setting: 8-mer, flanks averaged, mean of 2 arrays, mostly near background
Construct (chain): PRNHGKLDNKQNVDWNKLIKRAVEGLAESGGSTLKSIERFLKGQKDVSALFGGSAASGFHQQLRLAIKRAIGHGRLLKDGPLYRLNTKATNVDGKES
Sequence = ACTGTGTA; result = -0.01
Sequence = ATGCCCTA; result = -0.0879
Sequence = ATTACCCC; result = -0.0644
Sequence = ACCGGTAC; result = -0.229
Sequence = AAATAGTC; result = -0.142
Sequence = TCTCAAGA; result = -0.0832
Sequence = TCATCTAA; result = 0.0346
Sequence = GGGAGCGA; result = -0.0572
Sequence = ATCGTTAG; result = -0.0483
Sequence = ACGCAGCG; result = 0.0627
Sequence = GGGGCGGA; result = 0.147
Sequence = ATTACTGG; result = -0.0977
Sequence = TGCCTACA; result = 0.0171
Sequence = GTCGCTCA; result = 0.0186
Sequence = CATCAGCA; result = -0.0551
Sequence = TGCAGCAA; result = 0.0707
Sequence = AATCTATC; result = -0.0186
Sequence = CATCGGAG; result = 0.0127
Sequence = GCGCATGA; result = -0.0576
Sequence = ACCCATCG; result = -0.0138
Sequence = ATACGTTA; result = -0.0673
Sequence = CCCCTGTA; result = -0.081
Sequence = CACTGTCG; result = -0.114
Sequence = CACCTTCC; result = 0.0442
Sequence = GAAATTAA; result = 0.257

Block 4 — technique: protein-binding microarray; form: double-stranded DNA, one strand shown; matrix: in vitro; concentration: 250 nM; setting: 60-bp whole probe; added: salmon DNA 0.4 mg/ml; baseline: random background probes; direction: higher = stronger binding; endpoint: log fluorescence; shared flanks, not repeated: GCCTAGCAC … GTCTTGATTCGCTTGACGCTGCTG
Target: Interferon regulatory factor 5, full length, phosphomimetic (IRF5, Homo sapiens, UniProt Q13568-2, residues 1-514, K96S/S451D/S453D/S456D/S462D)
Sequence = GACTGTCTCCTTTTCCTGACGTGCTAG; result = 0.325 z-score
Sequence = GACGATATCGGGACTGCAGACGTGCTA; result = 0.996 z-score
Sequence = GCCGGTATCGGGTATCGGGACGTGCTA; result = 4 z-score
Sequence = TGAGATATCAGTTTCGATTAGTGCTAG; result = 9.72 z-score
Sequence = CTGAGAATGGGGTTTGCAGCCGTGCTA; result = -0.616 z-score
Sequence = GACGGACTGCTTATCCTCACGTGCTAG; result = -0.23 z-score
Sequence = GACGGTATAGACACTGGGGACGTGCTA; result = -0.41 z-score
Sequence = GACCTCGTCTCTATCAAAAAGTGCTAG; result = -0.00827 z-score
Sequence = GTCTCTTGTTCTCTCTGGCCGTGCTAG; result = 0.295 z-score
Sequence = TCATCCTTTGCTTTCTCACTGTGCTAG; result = 0.96 z-score
Sequence = TTTGCTTTACTGATGGCCCTGTGCTAG; result = 0.305 z-score
Sequence = TCAGGTTTCGGGTTTCGGTTAGTGCTA; result = 9.83 z-score
Sequence = TGAGGTTTCCTTCTCCTTTAGTGCTAG; result = 0.943 z-score
Sequence = TTAGGAGTGGACACTGGGTTAGTGCTA; result = -0.416 z-score
Sequence = TCATGTTTGTCACTCTCACTGTGCTAG; result = 0.747 z-score
Sequence = TCACCTCTCCCCTCTTGTACTGTGCTA; result = -0.125 z-score
Sequence = GACGATATCGGGACTCGAGACGTGCTA; result = 0.896 z-score

For quick reference, copied from above (block 2):
Sequence = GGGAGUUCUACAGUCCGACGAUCUGGGAGGUGGAUUUUGUUUAUUUUUUUAGCUCAUUUCCAGGGGAGGGAAUUUUUUUUUAAUAUGUGUCAUGAAUAAAGUUGUUUUUGAAAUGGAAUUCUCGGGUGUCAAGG; result = -0.678
Sequence = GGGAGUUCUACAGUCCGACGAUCGUCCUGUGCUACACAUCGUAUGUACCGAAUCGGGAAAAAAAGGGUUUUUGGGUUUGGGAAAGUAUUAUGUUACGCCGUUCGGAUCUGCACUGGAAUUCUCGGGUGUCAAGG; result = -2.28
Sequence = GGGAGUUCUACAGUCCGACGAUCUGGGAGGUGGAUUUUGUUUAUUUUUUUAGCUCAUUUCCAGGGGUGGGAAUUUUUUUUUAAUAUGUGUCAUGAAUACAGUUGUUUUUGAAAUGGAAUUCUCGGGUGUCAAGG; result = -0.272
Sequence = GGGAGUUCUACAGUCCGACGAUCUCCUGUGCUACACAUCGUAUGUACCGAAUCGGUUUUUGGGGUUUUUGGGGUUUUUGGGGAAAGUAUUAUGUUACGCCGUUCGGAUCUGCAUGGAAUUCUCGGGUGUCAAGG; result = -0.047
Sequence = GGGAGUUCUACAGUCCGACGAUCCCUGUGCUACACAUCGUAUGUACCGAAUCGGGUUUUUUUGGGGUUUUUUUGGUUUUUUUGGAAAGUAUUAUGUUACGCCGUUCGGAUCUGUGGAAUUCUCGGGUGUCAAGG; result = 1.17
Sequence = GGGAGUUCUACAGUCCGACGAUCAGUCCUGUGCUACACAUCGUAUGUACCGAAUCGGAAAGGUUUUUUUGGAAAAAAAGGAAAGUAUUAUGUUACGCCGUUCGGAUCUGCACUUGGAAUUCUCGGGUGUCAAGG; result = -1.95
Sequence = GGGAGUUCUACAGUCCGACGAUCUCCUGUGCUACACAUCGUAUGUACCGAAUCGGUUUUUUGGGGUUUUUUGGGUUUUUUGGGAAAGUAUUAUGUUACGCCGUUCGGAUCUGCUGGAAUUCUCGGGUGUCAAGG; result = 0.503
